Measured values pooled from the literature.
Parts stem from different laboratories: compare values within a part only. Changes are numbered by the printed parent chain.
Sequence of UniProt Q9HBH9 (whole entry, looked up): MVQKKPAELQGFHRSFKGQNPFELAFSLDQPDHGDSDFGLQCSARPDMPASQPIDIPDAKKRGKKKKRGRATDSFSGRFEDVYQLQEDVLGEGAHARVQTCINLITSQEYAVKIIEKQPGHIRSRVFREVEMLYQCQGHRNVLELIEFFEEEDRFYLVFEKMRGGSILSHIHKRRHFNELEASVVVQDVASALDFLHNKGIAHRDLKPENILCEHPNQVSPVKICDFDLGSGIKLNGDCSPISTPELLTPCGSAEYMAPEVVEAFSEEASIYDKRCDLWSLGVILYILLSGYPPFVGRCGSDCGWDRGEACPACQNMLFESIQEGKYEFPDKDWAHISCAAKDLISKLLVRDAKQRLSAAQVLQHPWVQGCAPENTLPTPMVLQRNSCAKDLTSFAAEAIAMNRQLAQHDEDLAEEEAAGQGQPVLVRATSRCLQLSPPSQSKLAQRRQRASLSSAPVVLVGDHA

Block 1
Variant: T135S
Target: ABI1, truncated, D143A, DHFR fusion (Arabidopsis thaliana)
Technique: DHFR PCA, deep sequencing
Matrix: yeast
Notes: methotrexate growth selection, single substitutions
Relative to: wild-type fitted maximum
Direction: higher = stronger binding
Endpoint: relative binding score
Starting sequence: PYL1, truncated, DHFR fusion (Arabidopsis thaliana); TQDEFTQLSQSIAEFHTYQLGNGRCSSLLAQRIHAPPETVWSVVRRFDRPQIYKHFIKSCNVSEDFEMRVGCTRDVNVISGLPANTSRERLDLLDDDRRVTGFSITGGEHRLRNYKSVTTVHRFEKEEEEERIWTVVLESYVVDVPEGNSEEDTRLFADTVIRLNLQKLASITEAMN
with: (+)-ABA 0 µM: 8.44%
with: (+)-ABA 1.4 µM: 48.7%
with: (+)-ABA 200 µM: 103%
with: (+)-ABA 0.39 µM: 27.7%
with: (+)-ABA 0.032 µM: 12.8%
with: (+)-ABA 58 µM: 89.7%

Block 2
Target: CCND2, cyclin fold, Cln2 fusion (human)
Technique: yeast growth competition, sequencing
Matrix: yeast
Notes: weak parent motif
Relative to: not given
Direction: higher = stronger binding
Endpoint: normalised enrichment score
Starting sequence: viral docking peptide; TSVRRALFTGGSD
G10K: -0.483
S2H: 0.0653
S2P: 0.0324
A6W: -0.39
S12N: 0.0646
R5K F8L: 0.193
S2K: -0.0469
S2R: -0.248
T9E: 0.13
T9Y: 0.419
L7V: 0.164
G11E: 0.00327
L7Q: -0.0146
R4H: -0.121
F8A: 0.0308
V3K: -0.33
A6D: 0.106
S12D: 0.11
S12F: -0.172
S12C: -0.0182
L7A: 0.309
G11H: -0.0306
G10Q: -0.158
G10T: -0.202
V3W: -0.475

Block 3
Target: PABPC1L2, full length, GST fusion (mouse, UniProt A0ABA7IW68)
Technique: RNAcompete
Molecule type: RNA
Matrix: in vitro
Tested at: 20 nM
Notes: 7-mer, probes averaged, single round
Relative to: mean of 7-mers
Direction: higher = stronger binding
Endpoint: 7-mer Z-score
Construct (chain): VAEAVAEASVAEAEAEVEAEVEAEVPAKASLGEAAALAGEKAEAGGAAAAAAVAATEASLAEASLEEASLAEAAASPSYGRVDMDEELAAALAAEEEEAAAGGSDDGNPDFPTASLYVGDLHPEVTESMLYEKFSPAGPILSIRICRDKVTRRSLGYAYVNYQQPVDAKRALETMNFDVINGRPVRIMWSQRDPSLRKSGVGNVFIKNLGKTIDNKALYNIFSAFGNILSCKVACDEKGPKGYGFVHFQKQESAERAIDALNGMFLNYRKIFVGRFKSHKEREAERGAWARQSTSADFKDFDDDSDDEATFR
UUGACGC: -0.211
AUACUGU: -0.235
AGAUCCC: -0.362
CUCAAUU: -0.146
UAUUAGC: -0.202
CCUAAUC: -0.26
AAGAGGG: 1.22
UUCAGGC: -0.293

Block 4
Target: CEP164, C-terminal peptide (human)
Technique: DHFR complementation, deep sequencing
Matrix: yeast
Notes: single substitutions, model-inferred values
Relative to: wild type
Direction: higher = weaker binding
Endpoint: binding free energy change
Starting sequence: PDZK1, PDZ domain 2 (human); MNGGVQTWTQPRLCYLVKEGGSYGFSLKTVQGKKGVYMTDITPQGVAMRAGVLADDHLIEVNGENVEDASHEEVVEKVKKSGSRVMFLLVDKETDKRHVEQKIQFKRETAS; partner HNRVKVYRF
M86D: 0.0453 kcal/mol
S111R: -0.0765 kcal/mol
Y37L: 0.54 kcal/mol
D68L: 0.0767 kcal/mol
E93S: -0.0628 kcal/mol
K96N: -0.0509 kcal/mol
I41F: 1.53 kcal/mol
V30D: 0.196 kcal/mol

Other studies, line by line
P1: PafA, mature enzyme, eGFP fusion (Elizabethkingia meningoseptica, UniProt Q9KJX5); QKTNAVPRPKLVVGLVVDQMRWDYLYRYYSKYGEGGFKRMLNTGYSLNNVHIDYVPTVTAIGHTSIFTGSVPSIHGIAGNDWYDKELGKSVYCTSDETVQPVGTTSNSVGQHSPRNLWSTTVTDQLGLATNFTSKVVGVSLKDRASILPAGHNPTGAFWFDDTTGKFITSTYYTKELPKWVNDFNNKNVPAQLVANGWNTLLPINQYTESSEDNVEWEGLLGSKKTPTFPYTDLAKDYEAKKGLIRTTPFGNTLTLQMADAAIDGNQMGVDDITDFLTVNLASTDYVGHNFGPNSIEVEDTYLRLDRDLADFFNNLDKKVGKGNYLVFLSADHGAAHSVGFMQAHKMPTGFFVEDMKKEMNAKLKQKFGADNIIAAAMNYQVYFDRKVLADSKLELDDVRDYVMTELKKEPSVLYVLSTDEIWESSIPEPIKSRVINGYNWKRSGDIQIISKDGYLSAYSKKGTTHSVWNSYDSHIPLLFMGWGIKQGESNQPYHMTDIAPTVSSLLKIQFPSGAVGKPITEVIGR
COC(=O)c1cc(N(C)C(=O)c2ccn3ncc(-c4ccc(C(=O)O)cc4)c3c2)ccc1Cl  IC50 (MAP kinase-interacting serine/threonine-protein kinase 2 (MKNK2, Homo sapiens, UniProt Q9HBH9); enzyme activity, inhibitor): 3.43 µM
P1 G463V  oxyanion analog dissociation constant (tungstate, free oxyanion; microfluidic competitive inhibition; in vitro, cell-free expressed; not given, derived from inhibition constants, unchanged parent 2230 nM; lower = stronger binding): 1.4 µM
PhoQ, residues 284 288 289 292 302 303 SVTLVV  fold induction (PhoP, residues 12 14 15 18 19 VHSCL (Escherichia coli, UniProt P23836); Sort-seq, item: YFP reporter; E. coli; PhoQ-PhoP variant library, with: 10 µM Mg2+; relative to: high Mg2+ state, higher = stronger signaling): 11.5

For quick reference, copied from above (block 3):
AAGAGGG: 1.22
AGAUCCC: -0.362
CUCAAUU: -0.146
CCUAAUC: -0.26
UUCAGGC: -0.293
UAUUAGC: -0.202
